# Assay results collected from several papers.
# A part holds a random share of what one study measured.
# Sequence of UniProt P48736 (whole entry, looked up): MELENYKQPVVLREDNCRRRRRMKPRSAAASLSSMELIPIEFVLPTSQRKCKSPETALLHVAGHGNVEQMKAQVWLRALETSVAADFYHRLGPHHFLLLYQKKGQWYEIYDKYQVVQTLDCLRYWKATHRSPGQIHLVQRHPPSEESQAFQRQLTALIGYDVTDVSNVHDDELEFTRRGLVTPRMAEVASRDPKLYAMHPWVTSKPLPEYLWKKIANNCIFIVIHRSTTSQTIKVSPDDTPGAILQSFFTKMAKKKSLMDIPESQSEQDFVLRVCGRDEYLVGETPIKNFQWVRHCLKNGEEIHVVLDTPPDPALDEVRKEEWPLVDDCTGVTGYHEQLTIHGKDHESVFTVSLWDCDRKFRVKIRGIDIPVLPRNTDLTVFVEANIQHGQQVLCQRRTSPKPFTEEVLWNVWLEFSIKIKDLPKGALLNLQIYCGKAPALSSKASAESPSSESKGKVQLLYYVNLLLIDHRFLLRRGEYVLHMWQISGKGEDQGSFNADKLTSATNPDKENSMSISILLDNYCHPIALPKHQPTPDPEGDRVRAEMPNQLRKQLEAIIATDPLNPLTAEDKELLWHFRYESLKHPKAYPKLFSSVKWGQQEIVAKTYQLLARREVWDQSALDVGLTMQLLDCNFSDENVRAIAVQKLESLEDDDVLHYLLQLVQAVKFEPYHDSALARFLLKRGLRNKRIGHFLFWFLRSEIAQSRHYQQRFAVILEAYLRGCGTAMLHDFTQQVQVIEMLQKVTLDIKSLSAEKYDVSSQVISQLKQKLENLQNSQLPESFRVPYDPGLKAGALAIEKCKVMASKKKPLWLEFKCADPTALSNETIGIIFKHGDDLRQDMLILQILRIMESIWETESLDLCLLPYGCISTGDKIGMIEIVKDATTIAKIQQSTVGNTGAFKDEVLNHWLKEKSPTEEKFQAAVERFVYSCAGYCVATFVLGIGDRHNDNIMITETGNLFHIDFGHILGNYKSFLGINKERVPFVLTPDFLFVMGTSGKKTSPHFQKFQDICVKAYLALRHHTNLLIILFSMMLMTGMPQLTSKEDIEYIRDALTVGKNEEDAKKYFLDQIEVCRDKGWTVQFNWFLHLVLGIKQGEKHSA
# Sequence of UniProt Q96PN8 (whole entry, looked up): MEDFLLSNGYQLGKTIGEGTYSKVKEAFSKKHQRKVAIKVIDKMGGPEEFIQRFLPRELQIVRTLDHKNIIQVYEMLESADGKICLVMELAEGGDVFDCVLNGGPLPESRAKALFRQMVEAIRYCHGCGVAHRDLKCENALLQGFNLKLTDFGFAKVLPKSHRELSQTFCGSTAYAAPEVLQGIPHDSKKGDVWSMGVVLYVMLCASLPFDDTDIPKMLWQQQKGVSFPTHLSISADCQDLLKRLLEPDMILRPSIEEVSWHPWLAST
# Sequence of UniProt Q6PHR2 (whole entry, looked up): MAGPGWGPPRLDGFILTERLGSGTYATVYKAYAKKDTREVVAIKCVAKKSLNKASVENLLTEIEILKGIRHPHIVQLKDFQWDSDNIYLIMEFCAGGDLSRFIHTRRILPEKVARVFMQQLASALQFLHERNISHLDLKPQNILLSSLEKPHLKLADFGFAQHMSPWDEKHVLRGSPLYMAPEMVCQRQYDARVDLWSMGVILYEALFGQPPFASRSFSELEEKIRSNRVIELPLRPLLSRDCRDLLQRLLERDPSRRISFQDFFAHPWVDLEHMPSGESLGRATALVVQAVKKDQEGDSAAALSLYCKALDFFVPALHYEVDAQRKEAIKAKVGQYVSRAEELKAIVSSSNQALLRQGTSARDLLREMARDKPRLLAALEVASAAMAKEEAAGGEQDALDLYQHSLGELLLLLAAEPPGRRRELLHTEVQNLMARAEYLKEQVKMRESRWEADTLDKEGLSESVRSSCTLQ

# Set 1 — read-out: enzyme activity; action: inhibitor; concentration: 0.5 µM; reference: control
# Target: Serine/threonine-protein kinase WNK2 (WNK2, Homo sapiens, UniProt Q9Y3S1)
# Sequence of UniProt Q9Y3S1 (whole entry, looked up): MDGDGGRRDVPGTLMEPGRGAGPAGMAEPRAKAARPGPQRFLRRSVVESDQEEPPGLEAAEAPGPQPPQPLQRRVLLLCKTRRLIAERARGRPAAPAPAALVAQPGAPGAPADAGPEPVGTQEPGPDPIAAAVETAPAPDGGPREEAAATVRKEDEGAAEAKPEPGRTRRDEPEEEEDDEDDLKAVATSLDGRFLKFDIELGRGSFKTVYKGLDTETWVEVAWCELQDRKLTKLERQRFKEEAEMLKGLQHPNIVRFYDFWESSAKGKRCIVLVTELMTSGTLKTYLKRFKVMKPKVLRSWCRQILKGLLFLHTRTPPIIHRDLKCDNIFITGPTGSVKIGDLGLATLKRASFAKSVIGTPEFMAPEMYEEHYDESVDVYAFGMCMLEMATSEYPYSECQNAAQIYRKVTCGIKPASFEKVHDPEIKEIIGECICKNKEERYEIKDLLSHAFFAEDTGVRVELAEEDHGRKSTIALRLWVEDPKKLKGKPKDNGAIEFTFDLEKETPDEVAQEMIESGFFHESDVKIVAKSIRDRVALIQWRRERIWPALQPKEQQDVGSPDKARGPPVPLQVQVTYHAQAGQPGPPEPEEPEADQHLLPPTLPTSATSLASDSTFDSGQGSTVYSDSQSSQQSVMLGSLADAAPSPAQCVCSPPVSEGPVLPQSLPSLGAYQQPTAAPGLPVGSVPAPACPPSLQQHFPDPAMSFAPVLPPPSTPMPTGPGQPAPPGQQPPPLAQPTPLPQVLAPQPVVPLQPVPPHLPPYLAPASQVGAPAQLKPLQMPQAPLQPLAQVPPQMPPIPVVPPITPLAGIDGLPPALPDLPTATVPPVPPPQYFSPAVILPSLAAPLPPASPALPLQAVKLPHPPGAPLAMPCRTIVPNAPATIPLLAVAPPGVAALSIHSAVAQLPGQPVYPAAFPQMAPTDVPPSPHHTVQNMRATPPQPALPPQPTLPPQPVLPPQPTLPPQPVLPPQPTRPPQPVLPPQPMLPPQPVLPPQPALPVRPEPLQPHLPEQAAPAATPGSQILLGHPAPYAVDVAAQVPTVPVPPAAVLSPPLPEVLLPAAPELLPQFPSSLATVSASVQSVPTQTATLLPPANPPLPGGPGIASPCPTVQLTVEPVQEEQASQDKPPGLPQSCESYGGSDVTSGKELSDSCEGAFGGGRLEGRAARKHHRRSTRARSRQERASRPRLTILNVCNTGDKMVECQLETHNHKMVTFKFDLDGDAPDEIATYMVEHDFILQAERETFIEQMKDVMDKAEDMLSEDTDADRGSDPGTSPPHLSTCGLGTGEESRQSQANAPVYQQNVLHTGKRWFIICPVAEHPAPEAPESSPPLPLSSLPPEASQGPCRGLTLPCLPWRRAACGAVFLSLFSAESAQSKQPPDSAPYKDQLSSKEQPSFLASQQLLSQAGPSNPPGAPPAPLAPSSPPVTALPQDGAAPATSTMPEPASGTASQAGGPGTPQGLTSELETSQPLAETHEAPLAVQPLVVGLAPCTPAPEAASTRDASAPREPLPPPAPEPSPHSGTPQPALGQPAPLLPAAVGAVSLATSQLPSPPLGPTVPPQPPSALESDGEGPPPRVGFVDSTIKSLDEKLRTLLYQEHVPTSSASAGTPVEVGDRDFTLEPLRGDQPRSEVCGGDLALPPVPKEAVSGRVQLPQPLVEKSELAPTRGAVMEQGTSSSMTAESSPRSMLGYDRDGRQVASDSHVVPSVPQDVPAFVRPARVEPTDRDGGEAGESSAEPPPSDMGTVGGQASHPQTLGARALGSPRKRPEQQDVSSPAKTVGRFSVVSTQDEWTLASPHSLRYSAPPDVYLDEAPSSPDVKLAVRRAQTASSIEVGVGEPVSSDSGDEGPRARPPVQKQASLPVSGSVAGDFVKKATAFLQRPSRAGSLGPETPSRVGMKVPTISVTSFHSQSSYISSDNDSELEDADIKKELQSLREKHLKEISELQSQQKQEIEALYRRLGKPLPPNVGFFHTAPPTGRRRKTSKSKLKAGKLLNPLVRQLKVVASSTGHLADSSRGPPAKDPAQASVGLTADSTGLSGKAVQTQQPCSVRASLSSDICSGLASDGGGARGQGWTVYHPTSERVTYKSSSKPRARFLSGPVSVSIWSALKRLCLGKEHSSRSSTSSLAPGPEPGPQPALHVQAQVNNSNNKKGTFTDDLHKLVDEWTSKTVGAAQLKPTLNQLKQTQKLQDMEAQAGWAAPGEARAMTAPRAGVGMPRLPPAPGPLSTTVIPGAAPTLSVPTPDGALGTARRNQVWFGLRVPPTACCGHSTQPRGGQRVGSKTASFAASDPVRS
Compound,remaining activity [%]
Cc1ccc(NC2=CC(=O)c3sc(C)nc3C2=O)cc1,97.7
CC[n+]1c(/C=C/N(C)c2ccccc2)n(-c2ccccc2)c2ccc(-c3nc4ccccc4s3)cc21,112
Cc1cncc2cccc(S(=O)(=O)N3CCCN(C(=O)CN)C[C@@H]3C)c12,98
CC(C)(C)n1nc(Cc2cccc3ccccc23)c2c(N)ncnc21,115
CCCC(=O)Oc1ccc2[nH]c(C(=O)c3cc4ccccc4[nH]3)cc2c1,113
O=C1NC(=O)C(c2c[nH]c3ccccc23)=C1c1c[nH]c2ccccc12,92.7
Nc1nc(Nc2ccc(S(N)(=O)=O)cc2)nn1C(=O)c1c(F)cccc1F,116
Nc1nccc(-c2c(-c3ccc(F)cc3)ncn2C2CCNCC2)n1,93.1
N#CC(=C(N)Sc1ccc(N)cc1)c1ccccc1C(F)(F)F,109
O=S(=O)(NCCNC/C=C/c1ccc(Br)cc1)c1cccc2cnccc12,99.3
CC(=O)c1ccc(N2CCOCC2)cc1O,101
Nc1ncnc2c1cnn2-c1ccccc1,114
COc1cc(Nc2c(C#N)cnc3cc(OCCCN4CCN(C)CC4)c(OC)cc23)c(Cl)cc1Cl,94.2
CCc1[nH]c(-c2ccc(OC)cc2)nc1-c1ccncc1,104
CC#CC(=O)Nc1cc2c(Nc3ccc(F)c(Cl)c3)ncnc2cn1,107
Fc1ccc(-c2nc3n(c2-c2ccncc2)CCS3)cc1,104
COc1ccc(S(=O)(=O)N(CCO)c2ccccc2CN(C)CC=Cc2ccc(Cl)cc2)cc1,97.1
NC(=O)c1ccc(N(C(N)=O)c2c(F)cccc2F)nc1-c1ccc(F)cc1F,96.4
Cc1cc(Nc2nc(-c3ccccc3)nc3ccccc23)n[nH]1,82.6
Oc1ccc(Nc2nc(-c3ccc(Cl)cc3)cs2)cc1,101
O=C1Cc2c([nH]c3ccc([N+](=O)[O-])cc23)-c2ccccc2N1,116

# Set 2 — method: competition with immobilised ligand; concentration: 1 µM
# Structure (SMILES): O=C(O)c1cc(-c2ccc(C3CCNCC3)cc2)c2ccc(-c3ccc(C(F)(F)F)cc3)cc2c1
target,test,remaining binding
"PRKD1 (Homo sapiens, UniProt Q15139)",cell-free assay,100%
"MAPK12 (Homo sapiens, UniProt P53778)",cell-free assay,99%
"MAPK7 (Homo sapiens, UniProt Q13164)",cell-free assay,100%
"EPHA6 (Homo sapiens, UniProt Q9UF33)",cell-free assay,100%
"MAP3K10 (Homo sapiens, UniProt Q02779)",cell-free assay,100%
"Tyrosine-protein kinase ABL1, phosphorylated (ABL1, Homo sapiens, UniProt P00519, E255K)",binding,87%
"MAP3K13 (Homo sapiens, UniProt O43283)",cell-free assay,100%
"MAPK9 (Homo sapiens, UniProt P45984)",cell-free assay,100%
"TLK1 (Homo sapiens, UniProt Q9UKI8)",cell-free assay,100%
"MAP2K3 (Homo sapiens, UniProt P46734)",cell-free assay,100%
"PIM3 (Homo sapiens, UniProt Q86V86)",cell-free assay,100%
"Ribosomal protein S6 kinase alpha-1, N-terminal kinase domain (RPS6KA1, Homo sapiens, UniProt Q15418)",cell-free assay,100%
"Tyrosine-protein kinase JAK1, JH1 (JAK1, Homo sapiens, UniProt P23458)",cell-free assay,100%
"GRK4 (Homo sapiens, UniProt P32298)",cell-free assay,72%
"TSSK3 (Homo sapiens, UniProt Q96PN8)",cell-free assay,100%
"CDK8 (Homo sapiens, UniProt P49336)",cell-free assay,100%
"TSSK1B (Homo sapiens, UniProt Q9BXA7)",cell-free assay,100%
"FYN (Homo sapiens, UniProt P06241)",cell-free assay,100%
"PIK3CG (Homo sapiens, UniProt P48736)",cell-free assay,92%
"CSK (Homo sapiens, UniProt P41240)",cell-free assay,100%
"ULK3 (Homo sapiens, UniProt Q6PHR2)",cell-free assay,100%
"STK26 (Homo sapiens, UniProt Q9P289)",cell-free assay,100%
"CDK3 (Homo sapiens, UniProt Q00526)",cell-free assay,100%
"IRAK1 (Homo sapiens, UniProt P51617)",cell-free assay,100%
"MAP3K2 (Homo sapiens, UniProt Q9Y2U5)",cell-free assay,100%

# Set 3 — read-out: enzyme activity; action: inhibitor; concentration: 10 µM
# Target: Calcium/calmodulin-dependent protein kinase type II subunit alpha (CAMK2A, Homo sapiens, UniProt Q9UQM7)
# Sequence of UniProt Q9UQM7 (whole entry, looked up): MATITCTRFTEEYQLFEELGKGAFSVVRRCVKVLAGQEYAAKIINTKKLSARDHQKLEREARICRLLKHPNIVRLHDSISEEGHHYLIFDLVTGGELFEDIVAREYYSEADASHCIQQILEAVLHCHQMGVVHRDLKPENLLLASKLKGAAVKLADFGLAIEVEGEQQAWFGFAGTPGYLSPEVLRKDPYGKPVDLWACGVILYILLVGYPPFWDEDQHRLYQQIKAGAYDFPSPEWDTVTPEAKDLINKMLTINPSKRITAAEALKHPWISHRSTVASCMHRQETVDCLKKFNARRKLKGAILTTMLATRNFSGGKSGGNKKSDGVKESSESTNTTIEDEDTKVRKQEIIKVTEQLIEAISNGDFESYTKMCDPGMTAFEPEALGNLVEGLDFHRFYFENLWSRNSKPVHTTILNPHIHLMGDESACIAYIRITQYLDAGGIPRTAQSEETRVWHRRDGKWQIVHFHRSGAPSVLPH
SMILES,inhibition [%]
CC[C@@]1(O)C(=O)OCc2c1cc1n(c2=O)Cc2c-1nc1ccccc1c2CCNC(C)C,-8
Cn1c(=O)c2c(ncn2CC(=O)O)n(C)c1=O,9
CC(C)(C)c1ccc(C(O)CCCN2CCC(C(O)(c3ccccc3)c3ccccc3)CC2)cc1 (stereo not shown),-6
CC(C)=CC[C@@H](OC(=O)C=C(C)C)C1=CC(=O)c2c(O)ccc(O)c2C1=O,9
C[C@]12CC[C@@H]3c4ccc(O)cc4CC[C@H]3[C@@H]1CC[C@@H]2O,16
COC(=O)c1cc(OC)c2c(c1-c1c(CO)cc(OC)c3c1OCO3)OCO2,4
CC(C)[C@@H]1CC[C@@H](C)C[C@H]1O (racemic),0.21
COc1cc(O)cc(OC)c1,-42
CC(C)(C)C(O)/C=C/c1ccc2c(c1)OCO2 (stereo not shown),-5
CN1CCc2cc3c(cc2C(=O)Cc2ccc4c(c2C1)OCO4)OCO3,-29
C/C=C(\C)C(=O)O[C@@H]1c2cc(OC)c(OC)c(OC)c2-c2c(cc3c(c2OC)OCO3)C[C@H](C)[C@@]1(C)O,-8
COc1cc(O)cc(OC)c1OC,-44
CC1(C)CCC(C)(C)c2cc(NC(=O)c3ccc(C(=O)O)cc3)ccc21,-2

# Set 4 — host: mouse; matrix: microsomes or S9; concentration: 2 µM; time: 0.5 h
Structure (SMILES),remaining compound [%]
Cc1nc(C2CC2)nc2sc(C(=O)NC3(C#N)CCCC3)c(N)c12,6.37
COc1cc(OC)c(OC)c(C(c2sc3nc(C)nn3c2O)N2CCN(C)CC2)c1 (stereo not shown),> 100
Cc1c(C)c(C)c(S(=O)(=O)N(C)c2cnccn2)c(C)c1C,1.17
COc1ccccc1-c1coc2cc(O)ccc2c1=O,74.3
CC(C)Cn1c(C(C)C)nnc1N1C[C@@H]2CCS(=O)(=O)[C@@H]2C1,73.5
Cc1cc(NC(=O)NC(CCN(C)C)C(C)(C)C)n(C(C)(C)C)n1 (stereo not shown),91.7
COc1ccc(NC(=O)c2cc3cc(C)ccc3n2C)c(OC)c1,22.3
CC(C)(C)Nc1ncc(-c2cn[nH]c2)cc1-c1nc2ccccc2o1,70.7
Cc1nc2cc(=O)[nH]n2c(C)c1CCC(=O)N[C@H](CO)C(C)C,42.4
COc1cc(OC)c2nc(N3C[C@@H](NC(C)=O)[C@H](C(C)C)C3)cc(C)c2c1,84.8
COCCCNC1=NCCNC12CCN(S(=O)(=O)c1ccc(F)cc1)CC2,51.8
CCOCc1cc(-c2ccccc2)[nH]c(=O)c1C#N,30.1
CC(=O)c1[nH]c(C)c(C(=O)N[C@H]2C[C@@H](c3nnc(CO)n3C)C2)c1C,86.3
CC1(C)OC(=O)C2(Cc3ccccc3N3CCC(c4ccccc4)CC32)C(=O)O1 (stereo not shown),0.239

# Some of these lines once more (set 4):
Structure (SMILES),remaining compound [%]
Cc1cc(NC(=O)NC(CCN(C)C)C(C)(C)C)n(C(C)(C)C)n1 (stereo not shown),91.7
COc1cc(OC)c2nc(N3C[C@@H](NC(C)=O)[C@H](C(C)C)C3)cc(C)c2c1,84.8
COc1cc(OC)c(OC)c(C(c2sc3nc(C)nn3c2O)N2CCN(C)CC2)c1 (stereo not shown),> 100
CC(C)(C)Nc1ncc(-c2cn[nH]c2)cc1-c1nc2ccccc2o1,70.7
Cc1nc2cc(=O)[nH]n2c(C)c1CCC(=O)N[C@H](CO)C(C)C,42.4
